# Published values of several laboratories.
# Lines come from different studies, so protocols differ.
# PTPN2: Tyrosine-protein phosphatase non-receptor type 2 (PTPN2, Homo sapiens, UniProt P17706)
# HDAC8: Histone deacetylase 8 (HDAC8, Homo sapiens, UniProt Q9BY41)
# DRD3: D(3) dopamine receptor (DRD3, Homo sapiens, UniProt P35462)
SMILES,target,assay,test system,conditions,scale,selectivity ratio
CCn1nc2c(c1Nc1nc(-c3ccc(-n4cnc(C)c4)c(OC)n3)cs1)CCCC2,"Presenilin-1, in γ-secretase complex (PSEN1, Homo sapiens, UniProt P49768)",Notch substrate cleavage,HeLa cell membranes,,baseline: Notch over Aβ42 site IC50,200 to 400
O=C(c1ccc(F)cc1)C1CCN(C2Cc3c(O)cccc3CC2O)CC1 (racemic),VAChT and sigma-2 receptor,,,,baseline: sigma-2 Ki over VAChT Ki,398
Cc1ccc(C(=O)Nc2ccc(CP(=O)(O)O)cc2CP(=O)(O)O)cc1NC(=O)c1cccc(NC(=O)Nc2cccc(C(=O)Nc3cc(C(=O)Nc4ccc(CP(=O)(O)O)cc4CP(=O)(O)O)ccc3C)c2)c1,"F9 (Homo sapiens, UniProt P00740)","enzyme activity, inhibitor",,,baseline: factor XIa over factor IXa,27 fold
N[C@@H](CCC(=O)N[C@@H](CS[Se]Cc1ccc(-c2cccc(C(O)c3ccc(Cl)c(Cl)c3)c2)cc1)C(=O)NCC(=O)O)C(=O)O (stereo partly shown),PTPN2,enzyme activity,,"with: pNPP, GSH 1 mM",baseline: IC50 PTPN2 over STEP,27
O=C(CCCCCCN(Cc1cccnc1)Cc1cccnc1)NO,HDAC8,inhibitor,,,baseline: IC50 HDAC8 over HDAC1,2.9
CC(C)CCSc1nc2c([nH]1)c(=S)n(C)c(=O)n2C,"PGR (Homo sapiens, UniProt P06401)",reporter gene,T47D/A1-2,,baseline: potency at target over glucocorticoid receptor,≤ 10 fold
CCCCCCCCCCCCCCCCC1=C[C@@H](C(=O)O)[C@H]2C(=O)C(C(=O)OC)=C(CCCCCCCCCCCCCCCC)[C@H]2[C@H]1C(=O)OC,PTPN2,"inhibitor, pNPP hydrolysis",,,"baseline: TCPTP over PTP1B, higher = TCPTP-selective",4
O=C(CCCCCCNCc1ccc(-c2ccccc2)s1)NO,HDAC8,inhibitor,,,baseline: IC50 HDAC8 over HDAC1,11
CCN1CCN(Cc2ccc(Nc3ncc4c(n3)N(C)c3ccccc3C(=O)N4C)cc2C(F)(F)F)CC1,"Aurora kinase A (AURKA, Homo sapiens, UniProt O14965)",,,,baseline: IC50 Aurora B over IC50 Aurora A,12 fold
Cc1cccc(N2CCN(C[C@@H](O)c3ccccc3F)CC2)c1,DRD3,"binding, radioligand competition",,,baseline: Ki D2 over Ki D3,20 fold
CC(=O)Nc1ccc(/N=N/c2ccc(OC[C@@H](O)CNC(C)C)cc2)cc1,"ADRB1 (Homo sapiens, UniProt P08588)","cAMP production, EPAC FRET biosensor",,dark,baseline: beta1 over beta2,93.8
Cc1cc(CN(CCCCCCC(=O)NO)Cc2ccc(F)c(C)c2)ccc1F,HDAC8,inhibitor,,,baseline: IC50 HDAC8 over HDAC1,2.9
Cc1ccc(C[C@H](NC(=O)CN2CCCc3cc4cc(C(=O)NCCNC(=O)CCCC[C@@H]5SC[C@@H]6NC(=O)N[C@@H]65)c(=O)oc4cc32)C(=O)NC/C=C/S(=O)(=O)c2ccccc2)cc1,"Cathepsin K (CTSK, Homo sapiens, UniProt P43235)",inhibitor,,kinact/Ki,baseline: rhodesain over target,21
O=C(CCCCCCNCc1ccc(F)cc1)NO,HDAC8,inhibitor,,,baseline: IC50 HDAC8 over HDAC1,7.7
Cc1cc(NC(=O)[C@H](O)c2cc(F)cc(F)c2)ccc1-c1cnc(N)c(C(=O)NC(C)C)c1,"EIF2AK3 (Homo sapiens, UniProt Q9NZJ5)",FRET kinase,,,"baseline: GCN2, HRI, PKR over PERK",> 2000 fold
O=C(CCCCCCNCc1ccc([N+](=O)[O-])cc1)NO,HDAC8,inhibitor,,,baseline: IC50 HDAC8 over HDAC1,9.5
CC(C)(O)Cn1nc(-c2ccc3nc(OC(F)F)ccc3c2)c2c(N)ncnc21,"CDPK1 (Toxoplasma gondii, UniProt Q9BJF5)",Kinase-Glo luminescence,,with: Syntide 2 substrate,baseline: CDPK1 over CpCDPK1 IC50,> 10 fold
O=C(CCCCCCN(Cc1ccc2c(c1)OCO2)Cc1ccc2c(c1)OCO2)NO,HDAC8,inhibitor,,,baseline: IC50 HDAC8 over HDAC1,8.4
[3H]C(CNC(=O)c1ccc(-c2ccsc2)cc1)C([3H])CN1CCN(c2ccccc2OCCF)CC1 (stereo not shown),DRD3,binding,HEK293,,baseline: Kd rat D3 over Kd human D3,4 fold

# Some of these lines once more:
SMILES,target,assay,test system,conditions,scale,selectivity ratio
O=C(c1ccc(F)cc1)C1CCN(C2Cc3c(O)cccc3CC2O)CC1 (racemic),VAChT and sigma-2 receptor,,,,baseline: sigma-2 Ki over VAChT Ki,398
O=C(CCCCCCN(Cc1ccc2c(c1)OCO2)Cc1ccc2c(c1)OCO2)NO,HDAC8,inhibitor,,,baseline: IC50 HDAC8 over HDAC1,8.4
O=C(CCCCCCN(Cc1cccnc1)Cc1cccnc1)NO,HDAC8,inhibitor,,,baseline: IC50 HDAC8 over HDAC1,2.9
